{"data": "Experimental data pooled from the literature", "note": "Values joined by “and” are separate records of one study, mostly repeats; a detail may differ. ± marks the error that the study gave."}
{"SMILES": "CC(C)=CCC/C(C)=C\\CCn1cc(CC(C)(P(=O)(O)O)P(=O)(O)O)nn1", "assay": "qRT-PCR, measured: Slco1b2 and Cyp3a11", "system": "CD-1 mice, liver", "conditions": "intravenous, 0.3 mg/kg", "how to read": "baseline: control", "quantity": "mRNA level", "result": "increased"}
{"SMILES": "CC(C)NCCCn1c(Sc2cc3c(cc2I)OCO3)nc2c(N)ncnc21", "assay": "LC-MS/MS", "system": "patients with advanced solid tumours, plasma", "conditions": "above 180 mg/m^2, 24 h", "quantity": "plasma concentration", "result": "800 nM"}
{"SMILES": "COc1cnc2cccc(N3CCc4c(cc(Cn5ccnc5)cc4-c4cn(C)nc4C(F)(F)F)C3=O)c2c1", "system": "BALB/c nude mice, MV4-11 xenograft", "conditions": "intraperitoneal, 75 mg/kg, day 17", "quantity": "body weight", "result": "22.4 g and 22.2 g and 22.6 g and 22.5 g and 21.1 g"}
{"SMILES": "O=C1NC2(CC2)COc2ncc(F)cc2[C@H]2COCCN2c2ccn3ncc1c3n2", "system": "Sprague-Dawley rats, female, blood", "conditions": "oral, 20 mg/kg/day, end of treatment, 4-week subacute toxicity", "quantity": "haematocrit", "result": "39.7 ± 5.1%"}
{"SMILES": "CC[C@H](C)[C@H](NC(=O)[C@H](C)NC(=O)[C@H](CCCCN)NC(=O)[C@H](CCCCN)NC(=O)[C@@H](N)CCCNC(=N)N)C(=O)N[C@@H](CCCCN)C(=O)N[C@@H](CC(C)C)C(=O)N[C@H](C(=O)N[C@@H](CCCCN)C(=O)N[C@@H](CCCCN)C(=O)N[C@@H](CC(C)C)C(=O)N[C@H](C(=O)N[C@@H](CCCCN)C(=O)N[C@@H](CCCCN)C(=O)N[C@@H](CC(C)C)C(=O)N[C@@H](CCCCN)C(=O)N[C@@H](CCCCN)C(=O)N[C@@H](C)C(=O)N[C@@H](CC(C)C)C(=O)N[C@@H](CCCCN)C(=O)O)C(C)C)C(C)C", "system": "human red blood cells", "conditions": "8 mg/L, 1 h, mean of replicates", "quantity": "hemolysis", "result": "1.68%"}
{"SMILES": "CC[C@H](C)[C@H](NC(=O)[C@H](CCCCN)NC(=O)CNC(=O)[C@H](CC(C)C)NC(=O)[C@H](Cc1ccccc1)NC(=O)[C@H](CCCCN)NC(=O)[C@H](CO)NC(=O)[C@H](Cc1ccccc1)NC(=O)[C@H](Cc1c[nH]c2ccccc12)NC(=O)[C@H](CCC(N)=O)NC(=O)[C@@H](NC(=O)[C@H](Cc1ccccc1)NC(=O)CCCCCNC(=O)CN1CCN(CC(=O)O)CCN(CC(=O)O)CCN(CC(=O)O)CC1)C(C)C)C(=O)N[C@@H](CCC(=O)O)C(=O)N1CCC[C@H]1C(=O)N[C@@H](CC(=O)O)C(=O)N[C@H](C(=O)N[C@@H](CO)C(=O)N[C@@H](CCC(N)=O)C(=O)N[C@H](C(=O)N[C@@H](CCC(N)=O)C(=O)N[C@@H](CC(=O)O)C(=O)N1CCC[C@H]1C(=O)N[C@@H](CC(N)=O)C(=O)N[C@@H](CC(=O)O)C(=O)N[C@@H](CCC(N)=O)C(=O)N[C@@H](Cc1ccc(O)cc1)C(=O)N[C@@H](CCC(=O)O)C(=O)N1CCC[C@H]1C(=O)N[C@@H](Cc1ccccc1)C(=O)O)C(C)C)C(C)C [copper-64 labelled]", "system": "C57BL/6 mice, brain", "conditions": "vehicle, intratracheal instillation", "quantity": "tissue uptake", "result": "0.11 ± 0.02 %ID/g"}
{"SMILES": "CN1Cc2cc(Cl)ccc2-n2c(nnc2C2CCN(c3cccc([18F])n3)CC2)C1", "system": "C57BL/6 mouse male, heart", "conditions": "intravenous, 3.7 MBq, 30 min", "quantity": "tissue uptake", "result": "6.54 ± 2 %ID/g"}
{"SMILES": "CC(C)[C@@H]1NC(=O)CNC(=O)[C@H](CC(N)=O)NC(=O)[C@H](CCCNC(=N)N)NC(=O)[C@H](Cc2ccc(O)cc2)NC(=O)[C@H](C(C)C)NC(=O)[C@@H](NC(=O)[C@@H](NC(=O)[C@H](CC(N)=O)NC(=O)[C@H](Cc2c[nH]c3ccccc23)NC(=O)[C@H](C)NC(=O)[C@H](Cc2ccccc2)NC(=O)CNC(=O)[C@H](CCCCN)NC(=O)[C@H](Cc2ccccc2)NC(=O)[C@H](Cc2ccccc2)NC(=O)[C@H](CCCCN)NC(=O)OCC2c3ccccc3-c3ccccc32)C(C)C)CSSC[C@@H](C(=O)N[C@@H](Cc2c[nH]cn2)C(=O)N[C@@H](CCCNC(=N)N)C(=O)N[C@@H](CCCNC(=N)N)C(=O)N[C@@H](C)C(=O)N[C@@H](CC(N)=O)C(N)=O)NC(=O)[C@H](C(C)C)NC(=O)[C@H](CCCNC(=N)N)NC1=O", "system": "ICR mouse, blood", "conditions": "intramammary, 5 mg/kg, day 5, 3 d dosing", "quantity": "globulin", "result": "18.65 ± 0.05 g/L"}
{"SMILES": "C(#Cc1cncc(OC[C@@H]2CCN2)c1)c1ccccc1", "system": "male Sprague-Dawley rat, plasma", "conditions": "oral, 75 mg/kg, 15 min", "quantity": "concentration", "result": "310 ng/mL"}
{"SMILES": "CC(C)[C@H](NC(=O)[C@@H](NC(=O)[C@H](CCCNC(=N)N)NC(=O)[C@H](CCCNC(=N)N)NC(=O)[C@H](CCCNC(=N)N)NC(=O)[C@H](CCC(N)=O)NC(=O)[C@H](CCCNC(=N)N)NC(=O)[C@H](CCCNC(=N)N)NC(=O)[C@H](CCCCN)NC(=O)[C@H](CCCCN)NC(=O)[C@H](CCCNC(=N)N)NC(=O)CN)[C@@H](C)O)C(=O)N[C@H](C(=O)N[C@@H](CO)C(=O)N1CCC[C@H]1C(=O)O)[C@@H](C)O", "system": "ICR mice, male, lung", "conditions": "intranasal, 20 mg/kg daily, 4 weeks", "quantity": "organ weight", "result": "0.39 ± 0.028 g"}
{"SMILES": "CCCCC[C@@H]1NC(=O)[C@@H](C)N(C)C(=O)[C@H](CCCCC)N(C)C(=O)[C@@H](C)N(C)C(=O)[C@H](CCCCC)NC(=O)[C@@H](C)N(C)C(=O)[C@H](CCCCC)N(C)C(=O)[C@@H](C)N(C)C1=O", "assay": "PAMPA", "conditions": "500 µM, pH 7.4, UV/ELSD/MS detection", "quantity": "log Papp", "result": -5.41}
{"SMILES": "C=CC(=O)Nc1cccc(Cn2ncc3cnc(Nc4cnn(CCOC)c4)nc32)c1", "system": "Sprague-Dawley rat female, serum", "conditions": "oral, 180 mg/kg, day 28, 28-day subacute toxicity", "quantity": "serum total protein", "result": "47.1 ± 9.95 g/L"}
{"SMILES": "COC(=O)C[C@H](NC(=O)[C@H](C)NC(=O)[C@@H](NC(=O)[C@H](CC(=O)OC)NC(=O)[C@@H](NC(=O)c1ccc2ccccc2n1)C(C)C)C(C)C)C(=O)COc1c(F)cccc1F", "assay": "general toxicity", "system": "dog", "conditions": "intravenous, multiple doses", "quantity": "NOAEL", "result": "3 mg/kg/day"}
{"note": "Excerpt of the above:"}
{"SMILES": "O=C1NC2(CC2)COc2ncc(F)cc2[C@H]2COCCN2c2ccn3ncc1c3n2", "system": "Sprague-Dawley rats, female, blood", "conditions": "oral, 20 mg/kg/day, end of treatment, 4-week subacute toxicity", "quantity": "haematocrit", "result": "39.7 ± 5.1%"}
